Results gathered from unrelated publications.
Each numbered part is a random draw from the data of one study; scales do not carry over between parts. Substitutions count along the parent as printed.

Study 1
Target: Sal-like protein 4, full length isoform A (SALL4, Homo sapiens, UniProt Q9UJQ4, residues 1-1053)
Chain of UniProt Q9UJQ4 (whole entry, looked up): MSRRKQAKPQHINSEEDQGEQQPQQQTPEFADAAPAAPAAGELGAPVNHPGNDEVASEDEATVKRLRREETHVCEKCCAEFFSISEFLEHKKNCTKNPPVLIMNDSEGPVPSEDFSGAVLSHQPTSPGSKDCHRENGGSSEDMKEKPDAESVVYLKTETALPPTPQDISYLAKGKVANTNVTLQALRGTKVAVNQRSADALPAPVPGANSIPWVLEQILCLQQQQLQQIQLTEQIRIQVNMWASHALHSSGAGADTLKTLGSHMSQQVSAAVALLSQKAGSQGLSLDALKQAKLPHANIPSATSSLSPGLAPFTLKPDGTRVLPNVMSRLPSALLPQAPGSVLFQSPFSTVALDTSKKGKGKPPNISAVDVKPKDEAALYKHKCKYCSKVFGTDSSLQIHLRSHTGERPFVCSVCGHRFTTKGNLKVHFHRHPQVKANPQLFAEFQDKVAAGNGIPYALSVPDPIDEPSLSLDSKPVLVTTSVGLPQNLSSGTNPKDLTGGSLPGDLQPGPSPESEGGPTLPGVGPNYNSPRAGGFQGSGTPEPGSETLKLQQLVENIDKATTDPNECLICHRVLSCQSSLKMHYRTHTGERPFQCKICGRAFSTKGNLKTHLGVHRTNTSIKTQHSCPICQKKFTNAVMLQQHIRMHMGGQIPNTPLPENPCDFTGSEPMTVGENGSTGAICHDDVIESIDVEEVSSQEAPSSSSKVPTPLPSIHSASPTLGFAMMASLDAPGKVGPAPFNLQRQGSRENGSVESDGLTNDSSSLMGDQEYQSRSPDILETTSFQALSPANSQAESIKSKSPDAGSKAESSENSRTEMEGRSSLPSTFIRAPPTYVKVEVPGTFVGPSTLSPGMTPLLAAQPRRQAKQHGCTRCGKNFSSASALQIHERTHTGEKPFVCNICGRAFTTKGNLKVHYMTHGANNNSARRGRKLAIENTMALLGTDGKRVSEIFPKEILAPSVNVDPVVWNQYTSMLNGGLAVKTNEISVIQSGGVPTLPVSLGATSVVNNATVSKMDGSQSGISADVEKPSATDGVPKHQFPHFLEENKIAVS
Method: universal PBM
Molecule type: double-stranded DNA, one strand shown
Matrix: in vitro
Tested at: 600 nM
Setting: 8-mer, flanks averaged, mean of replicates
Reading: higher = stronger binding
Endpoint: E-score
CGGGAATC: -0.204
AAACTTCG: -0.0133
ATTCCTTG: 0.0578
GCTTACGA: 0.0519
ATCCTTGC: -0.0367
ATTATTGC: 0.369
CATACCCC: -0.0437
CCTTCGAC: -0.185
CTAAAGAA: 0.111
TAGAGAGA: 0.00634
CTGGTAAG: 0.011
ATCCCTTA: 0.0936
GTGGATAA: 0.167
CGACAGCC: -0.0973
CCGTAGCC: -0.332
ACGCTGCT: -0.09

Study 2
Target: CCND2, cyclin fold, Cln2 fusion (human)
Method: yeast growth competition, sequencing
Matrix: yeast
Setting: weak parent motif
Baseline: not given
Reading: higher = stronger binding
Endpoint: normalised enrichment score
Starting sequence: CDKN1B docking peptide (human); PSACRNLFGPVDH
P10H: -0.205
C4I: 0.239
N6S: 0.325
D12P: 0.109
P1C: 0.0803
H13Q: 0.267
P10T: 0.121

Study 3
Target: ABI1, truncated, D143A, DHFR fusion (Arabidopsis thaliana)
Method: DHFR PCA, deep sequencing
Matrix: yeast
Setting: methotrexate growth selection, single substitutions
Together with: (+)-ABA 0.39 µM
Baseline: wild-type fitted maximum
Reading: higher = stronger binding
Endpoint: relative binding score
Starting sequence: PYL1, truncated, DHFR fusion (Arabidopsis thaliana); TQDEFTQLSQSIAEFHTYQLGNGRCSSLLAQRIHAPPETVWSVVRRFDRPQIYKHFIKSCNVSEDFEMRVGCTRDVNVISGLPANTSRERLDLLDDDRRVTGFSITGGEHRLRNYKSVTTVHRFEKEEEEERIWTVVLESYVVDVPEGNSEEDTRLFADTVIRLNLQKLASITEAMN
R155V: 19.8%
L91N: -9.79%
P50M: -1.92%
G107C: 7.95%
T86R: 23.5%
R90C: -6.18%
R113M: 41.4%
C60A: -1.4%
R24I: 4.29%
M68V: 22.8%
G108E: -14.1%
R99M: 94.1%
K58E: 7.89%
N149F: -10.1%
R98E: -0.778%

Single results of other studies
PhoQ, residues 284 288 289 292 302 303 NSMLDC — fold induction (PhoP, residues 12 14 15 18 19 LHSVQ (Escherichia coli, UniProt P23836); Sort-seq, refers to: YFP reporter; E. coli; PhoQ-PhoP variant library, together with: 10 µM Mg2+; baseline: high Mg2+ state, higher = stronger signaling): 17.3

Repeated from above (study 3):
T86R: 23.5%
R90C: -6.18%
